Measurements from different studies.
Each line is one published result; not all experiments were run side by side. Numbers after ± are the reported error.

SMILES	target	assay	system	conditions	how to read	quantity	value
Cl.Cl.Cl.Cl.Cl.Cl.Cl.Cl.Cl.Cl.Cl.Cl.NC[C@@H]1O[C@H](O[C@H]2[C@@H](O)[C@H](O[C@@H]3[C@@H](O)[C@H](N)C[C@H](N)[C@H]3O[C@H]3O[C@H](CN)[C@@H](O)[C@H](O)[C@H]3N)O[C@@H]2Cn2cc(CCCc3cn(C[C@H]4O[C@@H](O[C@@H]5[C@@H](O)[C@H](N)C[C@H](N)[C@H]5O[C@H]5O[C@H](CN)[C@@H](O)[C@H](O)[C@H]5N)[C@H](O)[C@@H]4O[C@H]4O[C@@H](CN)[C@@H](O)[C@H](O)[C@H]4N)nn3)nn2)[C@H](N)[C@@H](O)[C@@H]1O	HIV-1 TAR RNA	UV thermal denaturation		1 molar equivalents to RNA, pH 6.8, TAR RNA 1 µM per strand	relative to: RNA alone, higher is more stabilization	ΔTm	9.3 °C
NC(=O)[C@H](CO)NC(=O)[C@@H]1CCCN1C(=O)[C@H](Cc1ccc(O)cc1)NC(=O)CNC(=O)[C@H](Cc1ccccc1)NC(=O)[C@@H](CCCCN=C=S)NC(=O)[C@@H](N)Cc1ccc(O)cc1	mu opioid receptor	radioligand binding	CHO cells	added: 1 nM [3H]DAMGO		IC50	0.38 ± 0.08 nM
O=C1c2ccccc2N(Cc2cccc(Br)c2)C12CCCC2	butyrylcholinesterase			10 µM		remaining activity	69.3 ± 3.68%
Cc1ccc(C(C)C)cc1.F[P-](F)(F)(F)(F)F.[Cl][Ru-]1[NH2+]CC[NH2+]1	calf thymus DNA	thermal denaturation		0.5 equivalents per DNA, 1 h, pH 7.39, 25 °C, 25 mM NaClO4		delta Tm	-1.3 °C
C[C@H](N)C(=O)N[C@@H](CO)C(=O)N[C@@H](C)C(=O)N[C@H]1CSC(=O)[C@H](Cc2ccccc2)NC(=O)[C@H](Cc2ccc(O)cc2)NC(=O)[C@H](C)NC(=O)[C@H](C)NC1=O	AgrC-III	inhibitor, GFP reporter	Staphylococcus epidermidis, agr group-III reporter	100 nM		AgrC-III activity	inhibited
COCCCN1CCc2c(Cc3ccc(Cl)cc3)[nH]c3c(OC(F)F)ccc(c23)C1=O	PDE6C	enzyme activity, inhibitor			relative to: PDE6C IC50 over PDE5A1 IC50	selectivity ratio	6.5
CC(C)C[C@H](NC(=O)[C@H](C)NC(=O)[C@H](CCCCN)NC(=O)[C@H](CCCNC(=N)N)NC(=O)[C@H](CCC(=O)O)NC(=O)[C@H](C)NC(=O)[C@H](CCC(=O)O)NC(=O)[C@H](CCCCN)NC(=O)[C@H](CCCCN)NC(=O)[C@H](CC(=O)O)NC(=O)[C@H](Cc1c[nH]cn1)NC(=O)[C@H](CC(=O)O)NC(=O)[C@H](Cc1c[nH]cn1)NC(=O)[C@H](CCCNC(=N)N)NC(=O)[C@H](CCC(=O)O)NC(=O)[C@H](CO)NC(=O)[C@H](CCCCN)NC(=O)[C@H](CC(C)C)NC(=O)[C@H](CCCNC(=N)N)NC(=O)[C@H](CCC(=O)O)NC(=O)[C@H](CC(C)C)NC(=O)[C@H](CCC(=O)O)NC(=O)[C@H](C)NC(=O)[C@H](CCC(=O)O)NC(=O)[C@H](CCC(=O)O)NC(=O)[C@H](Cc1c[nH]cn1)NC(=O)[C@H](CCCNC(=N)N)NC(=O)[C@H](CCC(=O)O)NC(=O)[C@H](CC(N)=O)NC(=O)[C@H](CCCCN)NC(=O)[C@H](CC(C)C)NC(=O)[C@H](CCCNC(=N)N)NC(=O)[C@H](CCC(N)=O)NC(=O)[C@H](CC(C)C)NC(=O)[C@H](CCC(=O)O)NC(=O)[C@H](C)NC(=O)[C@H](CC(=O)O)NC(=O)[C@H](C)NC(=O)[C@@H](NC(=O)[C@H](CC(C)C)NC(=O)[C@H](CCCCN)NC(=O)[C@H](CCC(=O)O)NC(=O)[C@@H](NC(=O)[C@H](CO)NC(=O)CN)C(C)C)[C@@H](C)O)C(=O)N[C@@H](CCC(=O)O)C(=O)N[C@@H](CC(=O)O)C(=O)N[C@@H](CCCCN)C(=O)N[C@@H](CC(C)C)C(=O)N[C@@H](C)C(=O)N[C@@H](CC(=O)O)C(=O)N[C@@H](Cc1ccc(O)cc1)C(=O)O	human plasminogen kringle 2	hydrogen-deuterium exchange NMR, item: L26, K27, E29 amides		concentration not given, pH 6.8, 25 °C		amide exchange persistence time	> 20 h
CCN(CC)CCCC(C)Nc1cc[n+]([Ru-]2[NH2+]CC[NH2+]2)c2cc(Cl)ccc12.Cc1ccc(C(C)C)cc1.F[P-](F)(F)(F)(F)F.F[P-](F)(F)(F)(F)F (stereo not shown)	calf thymus DNA	thermal denaturation		0.5 equivalents per DNA, 1 h, pH 7.39, 25 °C, 50 mM NaClO4		delta Tm	1.6 °C
CC(=O)N[C@@H](CNC(=O)c1cc(NC(=O)c2cc(NC(=O)c3cc(NC(=O)c4nccn4C)cn3C)cn2C)cn1C)CC(=O)Nc1cn(C)c(C(=O)Nc2cc(C(=O)Nc3cc(C(=O)Nc4cc(C(=O)NCCCN(C)CCCNC(=O)c5cccc(C(=O)O)c5)n(C)c4)n(C)c3)n(C)c2)n1	androgen response element DNA duplex	DNA binding		2 µM, pH 7.0	relative to: DNA alone	ΔTm	16.1 °C
NC(=O)[C@H](CO)NC(=O)[C@@H]1CCCN1C(=O)[C@H](Cc1ccc(O)cc1)NC(=O)CNC(=O)[C@H](Cc1ccccc1)NC(=O)[C@@H](CCCNC(=O)CBr)NC(=O)[C@@H](N)Cc1ccc(O)cc1	mu opioid receptor	radioligand binding	CHO cells	added: 1 nM [3H]DAMGO		IC50	0.11 ± 0.02 nM
COC[C@@H](NC(C)=O)C(=O)NCc1ccc(OCc2ccccc2F)cc1	rat voltage-gated sodium channels	whole-cell patch clamp	rat embryonic cortical neurons	10 µM		V1/2 of activation	-37 ± 4.4 mV
C[C@H](NC(=O)[C@@H]1CCCN1C(=O)[C@H](Cc1ccc(O)cc1)NC(=O)CNC(=O)[C@H](CO)NC(=O)[C@H](Cc1ccccc1)NC(=O)[C@@H](N)[C@@H](C)O)C(=O)N[C@@H](Cc1ccccc1)C(=O)O	µ opioid receptor		rat supraoptic nucleus neurons, Sprague Dawley rat	100 µM, held at -50 mV		outward current	89 ± 12.6 pA
CNc1ccccc1C(=O)O[C@H]1C[C@H](n2cnc3c(N)ncnc32)O[C@@H]1COP(=O)(O)OP(=O)(O)O	chicken myosin Va G440A FlAsH			25 °C, weak actomyosin.ADP state, added: actin, saturating Mg	relative to: wild type	ADP release rate constant	3 fold
O=C1c2cc(Cl)ccc2N(Cc2ccccc2)C12CCCC2	butyrylcholinesterase			10 µM		remaining activity	59.4 ± 5.45%
Cn1cc2cc1C(=O)NC[C@H](N)CC(=O)Nc1cn(C)c(n1)C(=O)Nc1cc(n(C)c1)C(=O)Nc1cc(n(C)c1)C(=O)Nc1cc(n(C)c1)C(=O)NC[C@H](N)CC(=O)Nc1cn(C)c(n1)C(=O)Nc1cc(n(C)c1)C(=O)Nc1cc(n(C)c1)C(=O)N2	androgen response element DNA duplex	DNA binding		2 µM, pH 7.0	relative to: DNA alone	ΔTm	23.6 °C
O=C1c2cc(F)ccc2N(Cc2ccccc2)C12CCCC2	butyrylcholinesterase			10 µM		remaining activity	52.8 ± 3.25%

SMILES	target	assay	system	conditions	how to read	quantity	value
COC[C@@H](NC(C)=O)C(=O)NCc1ccc(OCc2ccc(F)cc2)cc1	rat voltage-gated sodium channels	whole-cell patch clamp	rat embryonic cortical neurons	10 µM		V1/2 of activation	-32.2 ± 1.9 mV
Cl.Cl.Cl.Cl.Cl.Cl.Cl.Cl.Cl.Cl.Cl.Cl.NC[C@@H]1O[C@H](O[C@H]2[C@@H](O)[C@H](O[C@@H]3[C@@H](O)[C@H](N)C[C@H](N)[C@H]3O[C@H]3O[C@H](CN)[C@@H](O)[C@H](O)[C@H]3N)O[C@@H]2Cn2cc(CCCCCCc3cn(C[C@H]4O[C@@H](O[C@@H]5[C@@H](O)[C@H](N)C[C@H](N)[C@H]5O[C@H]5O[C@H](CN)[C@@H](O)[C@H](O)[C@H]5N)[C@H](O)[C@@H]4O[C@H]4O[C@@H](CN)[C@@H](O)[C@H](O)[C@H]4N)nn3)nn2)[C@H](N)[C@@H](O)[C@@H]1O	HIV-1 TAR RNA	UV thermal denaturation		1 molar equivalents to RNA, pH 6.8, TAR RNA 1 µM per strand	relative to: RNA alone, higher is more stabilization	ΔTm	6.1 °C
O=C1c2cc(F)ccc2NC12CCCC2	butyrylcholinesterase			10 µM		remaining activity	74 ± 2.95%
N=C(N)Nc1ccc(-c2nc3ccc(-c4ccc5nc(-c6ccc(NC(=N)N)cc6)[nH]c5c4)cc3[nH]2)cc1	r(CUG)12-MBNL1 complex	complex formation, inhibitor, TR-FRET				IC50	4600 ± 100 nM
C[C@@H](O)[C@H](NC(=O)[C@H](CO)NC(=O)[C@H](CO)NC(=O)[C@@H](N)CCCCN)C(=O)N[C@@H](CCCNC(=N)N)C(=O)NCC(=O)N[C@@H](CCCNC(=N)N)C(=O)N[C@@H](CCCCN)C(=O)N[C@@H](CO)C(=O)N[C@@H](CO)C(=O)N[C@@H](CCCNC(=N)N)C(=O)N[C@@H](CCCNC(=N)N)C(=O)N[C@@H](CCCCN)C(=O)N[C@@H](CCCCN)C(=O)O	MRGPRX2 human	degranulation, agonist, item: β-hexosaminidase release	LAD2			EC50	~10000 nM
CC(=O)N[C@H]1CNC(=O)c2cc(cn2C)NC(=O)c2cc(cn2C)NC(=O)c2cc(cn2C)NC(=O)c2nc(cn2C)NC(=O)C[C@@H](N)CNC(=O)c2cc(cn2C)NC(=O)c2cc(cn2C)NC(=O)c2cc(cn2C)NC(=O)c2nc(cn2C)NC(=O)C1	androgen response element DNA duplex	DNA binding		2 µM, pH 7.0	relative to: DNA alone	ΔTm	21.3 °C
Cl.Cl.Cl.Cl.Cl.Cl.Cl.Cl.Cl.Cl.Cl.Cl.NC[C@@H]1O[C@H](O[C@H]2[C@@H](O)[C@H](O[C@@H]3[C@@H](O)[C@H](N)C[C@H](N)[C@H]3O[C@H]3O[C@H](CN)[C@@H](O)[C@H](O)[C@H]3N)O[C@@H]2Cn2cc(-c3ccc(-c4cn(C[C@H]5O[C@@H](O[C@@H]6[C@@H](O)[C@H](N)C[C@H](N)[C@H]6O[C@H]6O[C@H](CN)[C@@H](O)[C@H](O)[C@H]6N)[C@H](O)[C@@H]5O[C@H]5O[C@@H](CN)[C@@H](O)[C@H](O)[C@H]5N)nn4)cc3)nn2)[C@H](N)[C@@H](O)[C@@H]1O	HIV-1 TAR RNA	UV thermal denaturation		1 molar equivalents to RNA, pH 6.8, TAR RNA 1 µM per strand		Tm	78.5 °C
CC[C@@H]1CN2CCc3c([nH]c4cccc(OC)c34)[C@@H]2C[C@@H]1/C(=C\OC)C(=O)OC	rabbit anti-mitragynine polyclonal IgG	competitive indirect ELISA		salt 0.33 M		IC50	2.6 µg/mL
[CH3][Ti+2][O]C(=O)c1ccc([S][Au][PH](c2ccccc2)(c2ccccc2)c2ccccc2)cc1.c1cc[cH-]c1.c1cc[cH-]c1	thioredoxin reductase human	enzyme activity, inhibitor	CAKI-1	12 h		IC50	880 nM
Cl.Cl.Cl.Cl.Cl.Cl.Cl.Cl.Cl.Cl.Cl.Cl.NC[C@@H]1O[C@H](O[C@H]2[C@@H](O)[C@H](O[C@@H]3[C@@H](O)[C@H](N)C[C@H](N)[C@H]3O[C@H]3O[C@H](CN)[C@@H](O)[C@H](O)[C@H]3N)O[C@@H]2Cn2cc(COCCCCCCCCOCc3cn(C[C@H]4O[C@@H](O[C@@H]5[C@@H](O)[C@H](N)C[C@H](N)[C@H]5O[C@H]5O[C@H](CN)[C@@H](O)[C@H](O)[C@H]5N)[C@H](O)[C@@H]4O[C@H]4O[C@@H](CN)[C@@H](O)[C@H](O)[C@H]4N)nn3)nn2)[C@H](N)[C@@H](O)[C@@H]1O	HIV-1 TAR RNA	UV thermal denaturation		1 molar equivalents to RNA, pH 6.8, TAR RNA 1 µM per strand	relative to: RNA alone, higher is more stabilization	ΔTm	5.4 °C
Cc1cc(Nc2nc(C[C@@]3(C(=O)O)CCN(Cc4cccc(Cl)c4F)[C@H](C)C3)cc(C)c2F)[nH]n1	AURKA (Thr288 phosphorylation), mouse	AURKA phosphorylation, inhibitor, item: phospho-AURKA Thr288	mouse, NCI-H446 xenograft, tumour	oral, 10 mg/kg single dose, 1 h		inhibition	89.4%
NC(=O)[C@H](CO)NC(=O)[C@@H]1CCCN1C(=O)[C@H](Cc1ccc(O)cc1)NC(=O)CNC(=O)[C@H](Cc1ccccc1)NC(=O)[C@@H](CCCN=C=S)NC(=O)[C@@H](N)Cc1ccc(O)cc1	mu opioid receptor	radioligand binding			relative to: IC50 delta over IC50 mu	selectivity ratio	29
CCC(=O)C[C@@H](O)C[C@@H](C)C[C@H](NC(=O)[C@@H]1C[C@H](C)CN1C(=O)/C=C/[C@@H](C)CC)C(=O)N[C@H](C(=O)NC(C)(C)C(=O)N[C@@H](CC(C)C)C(=O)N[C@@H](CC(C)C)C(=O)NC(C)(C)C(=O)NC(C)(C)C(=O)NCCC(=O)N[C@@H](C)CNC)[C@H](O)C(C)C	mTORC1	inhibitor, immunoblot	MDA-MB-453	100 nM, 2 h		phospho-S6K level	inhibited
CCCCCCCC/C=C\CCCCCCCC(=O)Oc1cccc(SSC[C@H](N)C(=O)N[C@@H](Cc2ccc(O)cc2)C(=O)NCC(=O)N[C@@H](C)C(=O)N[C@@H](CCCCN)C(N)=O)c1	rabbit mitochondrial calpain	enzyme activity	renal proximal tubule cells	10 µM, 60 min		inhibition	~40%
CC(=O)NCCC[C@@H](NC(=O)[C@@H](N)Cc1ccc(O)cc1)C(=O)N[C@@H](Cc1ccccc1)C(=O)NCC(=O)N[C@@H](Cc1ccc(O)cc1)C(=O)N1CCC[C@H]1C(=O)N[C@@H](CO)C(N)=O	mu opioid receptor	radioligand binding			relative to: IC50 delta over IC50 mu	selectivity ratio	64
